Assay results of several laboratories.
Numbered parts are unrelated; each lists some results of a single study. Changes are numbered by the printed parent chain.

Study 1
Target: ABI1, truncated, D143A, DHFR fusion (Arabidopsis thaliana)
Technique: DHFR PCA, deep sequencing
Matrix: yeast
Notes: methotrexate growth selection, single substitutions
With: (+)-ABA 0 µM
Relative to: wild-type fitted maximum
Direction: higher = stronger binding
Endpoint: relative binding score
Starting sequence: PYL1, truncated, DHFR fusion (Arabidopsis thaliana); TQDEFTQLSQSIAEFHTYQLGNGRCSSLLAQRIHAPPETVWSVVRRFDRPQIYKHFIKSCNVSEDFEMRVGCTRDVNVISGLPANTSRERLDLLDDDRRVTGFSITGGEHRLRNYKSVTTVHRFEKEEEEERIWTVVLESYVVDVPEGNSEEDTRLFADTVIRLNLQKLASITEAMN
K54W: -0.132%
I172F: -11.3%
P83I: 4.29%
R74V: 2.21%
E67M: 4.99%

Study 2
Target: Histone acetyltransferase KAT6A, winged helix 2, GST fusion (KAT6A, Homo sapiens, UniProt Q92794, residues 85-181)
Technique: protein binding microarray
Molecule type: double-stranded DNA, one strand shown
Matrix: in vitro
Tested at: not given
Notes: 8-mer, flanks averaged, mean of 2 arrays, mostly near background
Relative to: not given
Direction: higher = stronger binding
Endpoint: E-score
Target sequence (chain): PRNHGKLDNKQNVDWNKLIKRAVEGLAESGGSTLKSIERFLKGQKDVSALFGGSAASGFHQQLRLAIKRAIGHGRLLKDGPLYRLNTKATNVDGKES
CATGCAGC: 0.0336
ACCGTTCG: 0.166
TCCTTCGA: 0.0336
ACTTGGTG: -0.163
GTGAGAAA: 0.0772
TAAGCGTA: -0.109

Study 3
Target: CCND1, cyclin fold, Cln2 fusion (human)
Technique: yeast growth competition, sequencing
Matrix: yeast
Notes: weak parent motif
Relative to: not given
Direction: higher = stronger binding
Endpoint: normalised enrichment score
Starting sequence: SAMHD1 docking peptide (human); ASKSRVQLFKDDP; partner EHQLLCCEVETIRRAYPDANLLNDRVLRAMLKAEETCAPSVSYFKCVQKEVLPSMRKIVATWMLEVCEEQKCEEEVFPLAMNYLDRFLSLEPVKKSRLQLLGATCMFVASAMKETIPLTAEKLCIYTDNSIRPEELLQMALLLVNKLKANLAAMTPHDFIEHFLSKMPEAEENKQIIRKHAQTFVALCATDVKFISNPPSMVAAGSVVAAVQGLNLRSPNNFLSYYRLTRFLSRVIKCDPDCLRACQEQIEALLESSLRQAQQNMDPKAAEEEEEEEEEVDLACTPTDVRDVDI
AAKSRVQLFKDDP [S2A]: 0.388
ASKSRVQLFRDDP [K10R]: 0.278
ASKSRVQLRKDDP [F9R]: -0.112
ASKSRVQLFKSDP [D11S]: 0.626
ASKSRVQAFKDDP [L8A]: -0.152
ASKIRVQLFKDDP [S4I]: 0.923

Mixed results
PhoQ, residues 284 288 289 292 302 303 WVSSAF
fold induction (PhoP, residues 12 14 15 18 19 TPWLV (Escherichia coli, UniProt P23836); Sort-seq, refers to: YFP reporter; E. coli; PhoQ-PhoP variant library, with: 10 µM Mg2+; relative to: high Mg2+ state, higher = stronger signaling): 17.5

For quick reference, copied from above (study 2):
GTGAGAAA: 0.0772
TAAGCGTA: -0.109
TCCTTCGA: 0.0336
